Assay results from different studies.
Each line is one published result; not all experiments were run side by side. Numbers after ± are the reported error.

CC[C@H](C)[C@@H]1NC(=O)[C@H](Cc2cn(CCc3c(C)[nH]c4cc(Cl)cc(Cl)c34)nn2)NC(=O)[C@@H](CC(N)=O)NC(=O)[C@H](CCCNC(=N)N)NC(=O)[C@H](Cc2ccccc2)NC(=O)[C@@H](CC(C)C)NC(=O)[C@H](C)NC(=O)c2cc3cc(c2)C(=O)NC[C@@H](C(=O)N[C@@H](CCCCN)C(N)=O)NC(=O)[C@H](CCCNC(=N)N)NC(=O)[C@H](CCCNC(=N)N)NC(=O)[C@H](CCCNC(=N)N)NC(=O)[C@H](CCCNC(=N)N)NC(=O)[C@H](Cc2ccc4ccccc4c2)NC(=O)[C@H](Cc2ccccc2)NC(=O)[C@H](CCCCNC3=O)NC(=O)[C@H](CC(=O)O)NC1=O — MEK protein level (H1299; immunoblot; concentration not given, 12 h): no effect
CCCCCCCCN(CCC(=O)Nc1ccccc1)C(=O)c1cccn1C — phospho-H2AX level (progeroid mouse fibroblasts; immunoblot, item: phospho-histone H2AX; 2 µM, 14 d): decreased
CCC(CC)CNC(=N)NC(=N)NCCCCCCNC(=N)NC(=N)NCC(CC)CC — cells unable to hyperpolarize (NCI-H1299; TMRM flow cytometry; 1 µM, 48 h, added: oligomycin 1 µM): 12%
CCCCN1C(=O)c2cccc3c(NCCCCCCCCCCN4CCOCC4)ccc(c23)C1=O — emission maximum (BHK-21; confocal lambda scanning; endoplasmic reticulum): ~536 nm
O=Cc1c(O)ccc2ccccc12 — log2 fold change (HUVEC; RNA sequencing, item: RARB; 75 µM, 24 h; relative to: DMSO): -2.93
COc1cc(CNC(=O)C[C@H](C)CCC=C(C)C)ccc1OCc1cn(-c2ccc(F)cc2)nn1 — growth percent (BT-549 breast cancer cells; SRB; 10 µM, 48 h): 79.7%
Nc1cccc(S(=O)(=O)N2CCCN(S(=O)(=O)c3ccc4c(c3)OCCO4)CC2)c1 — glutamine consumption (H1299; concentration not given): no effect
C=C(CC)C(=O)c1ccc(OCC(=O)NCCNC(=O)COc2ccc(C(=O)C(=C)CC)c(Cl)c2Cl)c(Cl)c1Cl — IC10 (CoC1; cell growth, CCK-8; 72 h): ~0.4 µM
Cn1ncc2cc(-c3cncc(Cl)c3N3CCC4(CCNC4=O)CC3)ccc21 — number of transcripts altered (LS174T; gene-expression microarray; 0.715 µM, 4 or 24 h): 660
COc1cc(CNC(=O)C[C@H](C)CCC=C(C)C)ccc1OCc1cn(-c2cccc([N+](=O)[O-])c2)nn1 — growth percent (M14 melanoma cells; SRB; 10 µM, 48 h): 82.5%
C(=C/c1ccccc1)/c1ccccc1 — lowest effective concentration (Jurkat; cell proliferation, ATP luminescence; 24 h; relative to: vehicle): 2 µM
CC(Cc1ccc(Cl)cc1)=C(c1ccc(Cl)cc1)c1ccc(OCCN(C)C)cc1 — GI50 (SF-268; cell growth or viability, SRB): 5.01 µM
COc1ccc([C@@H]2CC(=O)c3c(O)cc(O[C@@H]4O[C@H](CO[C@@H]5O[C@@H](C)[C@H](O)[C@@H](O)[C@H]5O)[C@@H](O[C@H]5O[C@H](CO)[C@@H](O)[C@H](O)[C@H]5O)[C@H](O)[C@H]4O)cc3O2)cc1O — invasion (A549; Matrigel Transwell invasion; 100 µg/mL, 48 h): 28.8 ± 4.84%
Cc1c(C)n(-c2c(C(C)C)cccc2C(C)C)c(=[Se])n1-c1c(C(C)C)cccc1C(C)C.[Cl][Au] — resistance factor (LoVo-OXP colon cancer cells; MTT; relative to: LoVo-OXP over LoVo IC50): 0.9
C#CCN(CC(=O)O[C@H]1[C@H](C)O[C@@H](O[C@H]2[C@H](N(C)C)[C@@H](O)[C@H](O[C@H]3[C@@H](CC=O)C[C@@H](C)[C@@H](O[C@H]4CC[C@H](N(C)C)[C@@H](C)O4)/C=C/C=C/C[C@@H](C)OC(=O)C[C@@H](O)[C@@H]3OC)O[C@@H]2C)C[C@@]1(C)O)C(=O)c1ccc(C(F)(F)F)cc1 — p53 level (HGC-27; Western blot; 0.10, 0.45, 0.90 µM, 24 h): increased
COc1cc(CNC(=O)C[C@H](C)CCC=C(C)C)ccc1OCc1cn(-c2ccccc2F)nn1 — growth percent (M14 melanoma cells; SRB; 10 µM, 48 h): 94.8%
CC1=CCC23OC2(C)CCC2C(CN(C)C)C(=O)OC2C13.Cl (stereo not shown) — proliferation reduction (C6 rat glioma cells; 2.5 mg/mL, clonogenic; relative to: control): 2 fold
COc1cc(CNC(=O)C[C@H](C)CCC=C(C)C)ccc1OCc1cn(-c2ccc([N+](=O)[O-])cc2)nn1 — growth percent (M14 melanoma cells; SRB; 10 µM, 48 h): 88.8%
Cc1noc(NS(=O)(=O)c2ccc(NC(=O)c3cc(-c4ccc5ccccc5c4)nc4ccccc34)cc2)c1C — inhibition (mouse spleen cells; cell proliferation, MTT; 10 µM, 72 h, added: concanavalin A 5 µg/mL): 34.3 ± 5.6%
CCC(=O)N1CCN(c2ccc(NC(=O)c3ccc([N+](=O)[O-])o3)cc2Cl)CC1 — Emax (LDR; silenced GFP reporter derepression, microscopy; overnight; relative to: sodium butyrate): 38%
Cc1noc(NS(=O)(=O)c2ccc(NC(=O)c3ccnc(-c4cccc(Br)c4)c3)cc2)c1C — inhibition (mouse spleen cells; cell proliferation, MTT; 1 µM, 72 h, added: concanavalin A 5 µg/mL): 15.3 ± 7.81%
Brc1cccc(CNc2nc(NCc3ccccc3)c3ccccc3n2)c1 — GI50 (SW-403; cell growth or viability; 72 h): 2.8 µM
CCOC(=O)c1nc2cc(Cl)c(Cl)cc2nc1N1CCN(C(=O)Nc2ccc(N3CCNCC3)cc2)CC1 — NRF2 accumulation (KEAP1-mutant cancer cell lines; concentration not given): no effect
CCc1nnc(NC(=O)c2cccc(C(=O)Nc3nnc(CC)s3)n2)s1 — Emax (LDR; silenced GFP reporter derepression, microscopy; overnight; relative to: sodium butyrate): 96%
CCCCN1C(=O)c2cccc3c(NCCCCCCN4CCOCC4)ccc(c23)C1=O — diffusion coefficient (BHK-21; FRAP): 0.0027
CCN(CC)C(=O)c1ccc(-c2c3ccc(=[N+](C)C)cc-3sc3cc4c(cc23)C(C)(C)CCN4C)s1 — uptake increase (Colo-26; flow cytometry; 0.5 µM, 1 h, added: verapamil 100 µM; relative to: without verapamil): > 7 fold
CN1CCN(c2ccc(Nc3ncc(Cl)c(Nc4ccccc4NS(=O)(=O)C4CC4)n3)cc2)CC1 — EGFR pathway phosphoprotein levels (Ba/F3 EGFR C797S; western blot; concentration not given, 12 h): decreased
CCc1cccc(CC)c1NC(=O)c1nn(C)c2c1CCc1cnc(Nc3ccc(N4CCN(C)CC4)cc3OC)nc1-2 — cells with severe segregation errors (HeLa H2B-YFP parental; live cell imaging; 100 nM): 100%
COc1cccc(CNc2nc(NCc3ccccc3)c3ccccc3n2)c1 — GI50 (SW-403; cell growth or viability; 24 h): 4.7 µM
C[C@@H]1NC(=O)[C@H](CCC(=O)O)NC(=O)CNC(=O)[C@H](CC(=O)O)NC(=O)CNC(=O)[C@H](CCCCNC(=O)CCCCCNC(=O)[C@H](CS)NC(=O)CCCCCNC(=O)CN2CCN(CC(=O)O)CCN(CC(=O)O)CCN(CC(=O)O)CC2)NC(=O)[C@@H](Cc2ccc(O)cc2)NC1=O [gallium-68 labelled] — cellular uptake (CL1-5; 5 to 90 min, 37 °C; relative to: added radioactivity): < 1%
COc1cc(CNC(=O)C[C@H](C)CCC=C(C)C)ccc1OCc1cn(-c2ccccc2Cl)nn1 — growth percent (M14 melanoma cells; SRB; 10 µM, 48 h): 55.9%
C=CC(=O)Oc1ccc(Cl)cc1C(=O)Nc1ccc([N+](=O)[O-])cc1Cl — AR-V7 and STUB1 co-localization (293 cells expressing AR-V7, HSP70 and Flag-STUB1; dual immunofluorescence; 1 µM): increased
COc1cc(CNC(=O)C[C@H](C)CCC=C(C)C)ccc1OCc1cn(-c2cccc(C(F)(F)F)c2)nn1 — growth percent (BT-549 breast cancer cells; SRB; 10 µM, 48 h): 92.3%
CC(=O)OC[C@H]1O[C@@H](Sc2sc(C(=O)c3ccc(Br)cc3)c(N)c2-c2nc3ccccc3s2)[C@H](OC(C)=O)[C@@H](OC(C)=O)[C@H]1OC(C)=O — growth (SNB-19; SRB; 10 µM, 48 h; relative to: untreated): 87.3%
